Published values pooled from the literature.
Compare with care: the assays were run in different laboratories. ± marks the error that the study gave.
Cell line: SK-MEL-28

`CN(C)CCN1CCN(c2ccc3nc(-c4ccc5nc(-c6ccc(C(F)(F)F)cc6)[nH]c5c4)[nH]c3c2)CC1` gave a growth percent of 42.7% (SRB; 10 µM, 48 h).
With `[Cl-].[Cl-].[Ru+2].c1cnc2c(c1)ccc1cccnc12.c1cnc2c(c1)ccc1cccnc12.c1csc(-c2ccc(-c3nc4c5cccnc5c5ncccc5c4[nH]3)s2)c1` the phototherapeutic index was ~200 (normoxia, with: green light 523 nm, 100 J/cm2).
For `CNS(=O)(=O)Nc1nccc(Cc2c(C)c3ccc(Oc4ncccc4F)cc3oc2=O)c1F`, the IC50 was 3.42 nM (cell viability; 7 days).
For `Cc1ccc([N+](=O)[O-])cc1S(=O)(=O)N(C)/N=C/c1cnc2ccc(Br)cn12`, the IC50 was 1690 nM (cell growth or viability).
`CCN(C(=O)c1cc(F)ccc1Oc1nncnc1N1CCC2(C1)CN([C@H](CCCN(C)CCOC)C(C)C)C2)C(C)C` gave a GI50 of > 10000 nM (cell growth or viability; 72 h).
`Cc1cccc(-c2cccc(C)n2)n1.Cc1cccc(-c2cccc(C)n2)n1.F[P-](F)(F)(F)(F)F.F[P-](F)(F)(F)(F)F.[Ru+2].c1ccc2c(c1)Cc1cc(-c3nc4c5cccnc5c5ncccc5c4[nH]3)ccc1-2` gave an EC50 of 3330 ± 160 nM (cell viability; normoxia, with: blue light 453 nm, 100 J/cm2).
`[Cl-].[Cl-].[Ru+2].c1ccc(-c2ccccn2)nc1.c1ccc(-c2ccccn2)nc1.c1ccc2cc3nc4c5cccnc5c5ncccc5c4nc3cc2c1` gave a phototherapeutic index of 1 (visible light, oxygen 1%; relative to: dark EC50 over light EC50).
The phototoxicity index of `Cc1cccc(-c2cccc(C)n2)n1.Cc1cccc(-c2cccc(C)n2)n1.F[P-](F)(F)(F)(F)F.F[P-](F)(F)(F)(F)F.[Ru+2].c1ccc2c(-c3nc4c5cccnc5c5ncccc5c4[nH]3)c3ccccc3cc2c1` is reported as 3 (1% O2, with: blue light 453 nm, 100 J/cm2; relative to: dark over light EC50).
The TGI of `C1=[N+]2CCCC[N+]3=Cc4ccc5[n]4[Au-]23[n]2c1ccc2-c1nc2ccccc2nc1-5.F[P-](F)(F)(F)(F)F` is reported as 4.35 -log M (NCI60 five-dose screen).
For `Cc1ccnc(-c2cc(C)ccn2)c1.Cc1ccnc(-c2cc(C)ccn2)c1.F[P-](F)(F)(F)(F)F.[Ru+2].[c-]1cccc2c1c1ncccc1c1[nH]c(-c3ccc(-c4cccs4)s3)nc21`, the EC50 was 350 to 500 nM (cell viability, Alamar Blue; dark).
The EC50 of `Cc1cccc(-c2cccc(C)n2)n1.Cc1cccc(-c2cccc(C)n2)n1.F[P-](F)(F)(F)(F)F.F[P-](F)(F)(F)(F)F.[Ru+2].c1cc2ccc3ccc(-c4nc5c6cccnc6c6ncccc6c5[nH]4)c4ccc(c1)c2c34` is reported as 3200 ± 100 nM (cell viability; normoxia, with: green light 523 nm, 100 J/cm2).
`CC(C)(C)c1cc(-c2ccc3cccnc3n2)nc(-c2ccc3cccnc3n2)c1.COc1ccncc1.[Cl-].[Cl-].[Ru+2].c1ccc2cc3nc4c5cccnc5c5ncccc5c4nc3cc2c1` gave a phototherapeutic index of 1 (visible light, oxygen 1%; relative to: dark EC50 over light EC50).
With `Cc1cccc(-c2cccc(C)n2)n1.Cc1cccc(-c2cccc(C)n2)n1.F[P-](F)(F)(F)(F)F.F[P-](F)(F)(F)(F)F.[Ru+2].c1ccc(-c2nc3c4cccnc4c4ncccc4c3[nH]2)cc1` the phototoxicity index was 3 (1% O2, with: blue light 453 nm, 100 J/cm2; relative to: dark over light EC50).
`O=C(Nc1nnc2c1c(-c1ccc(Cl)cc1)nc1sc(=Cc3ccco3)c(=O)n12)c1ccccc1` (mixture of isomers) has a cell growth of 48.1% (SRB; 10 µM, NCI60 single-dose screen; relative to: untreated).

For quick reference, copied from above:
`CN(C)CCN1CCN(c2ccc3nc(-c4ccc5nc(-c6ccc(C(F)(F)F)cc6)[nH]c5c4)[nH]c3c2)CC1` gave a growth percent of 42.7% (SRB; 10 µM, 48 h).
`[Cl-].[Cl-].[Ru+2].c1ccc(-c2ccccn2)nc1.c1ccc(-c2ccccn2)nc1.c1ccc2cc3nc4c5cccnc5c5ncccc5c4nc3cc2c1` gave a phototherapeutic index of 1 (visible light, oxygen 1%; relative to: dark EC50 over light EC50).
